{"data": "Results from different studies", "note": "Each numbered part is a random draw from the data of one study; scales do not carry over between parts. Substitutions count along the parent as printed."}
{"data": "Block 1", "target": "ABI1, truncated, D143A, DHFR fusion (Arabidopsis thaliana)", "method": "DHFR PCA, deep sequencing", "sample": "yeast", "notes": "methotrexate growth selection, single substitutions", "with": "(+)-ABA 200 µM", "relative to": "wild-type fitted maximum", "reading": "higher = stronger binding", "parent": "PYL1, truncated, DHFR fusion (Arabidopsis thaliana); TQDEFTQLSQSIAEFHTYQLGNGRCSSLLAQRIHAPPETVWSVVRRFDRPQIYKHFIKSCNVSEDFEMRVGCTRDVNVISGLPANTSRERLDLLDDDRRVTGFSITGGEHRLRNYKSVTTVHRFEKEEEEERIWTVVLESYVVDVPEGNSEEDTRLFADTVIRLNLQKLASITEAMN; partner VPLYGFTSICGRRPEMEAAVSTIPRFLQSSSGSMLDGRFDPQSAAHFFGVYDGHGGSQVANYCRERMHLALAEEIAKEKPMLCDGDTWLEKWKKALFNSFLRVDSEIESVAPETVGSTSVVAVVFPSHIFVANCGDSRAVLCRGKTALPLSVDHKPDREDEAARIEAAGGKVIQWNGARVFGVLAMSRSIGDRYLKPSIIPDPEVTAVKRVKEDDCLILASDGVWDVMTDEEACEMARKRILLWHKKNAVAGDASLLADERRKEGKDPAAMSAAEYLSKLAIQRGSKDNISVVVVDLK"}
{"Change": "C25H", "relative binding score [%]": 50.1}
{"Change": "H122V", "relative binding score [%]": 44.2}
{"Change": "T6L", "relative binding score [%]": 93.7}
{"Change": "R46C", "relative binding score [%]": 88.2}
{"Change": "R69V", "relative binding score [%]": 101}
{"Change": "A170F", "relative binding score [%]": 3.25}
{"Change": "T1W", "relative binding score [%]": 88.3}
{"Change": "P146S", "relative binding score [%]": 62.2}
{"Change": "L28R", "relative binding score [%]": 89.1}
{"Change": "D48Y", "relative binding score [%]": 32.2}
{"Change": "P146R", "relative binding score [%]": 15.9}
{"data": "Block 2", "target": "CCNB3, cyclin fold, Cln2 fusion (human)", "method": "yeast growth competition, sequencing", "sample": "yeast", "notes": "weak parent motif", "relative to": "not given", "reading": "higher = stronger binding", "parent": "BORA docking peptide (human); SSLRRKLFLDGNG"}
{"Change": "S1A", "normalised enrichment score": 0.46}
{"Change": "F8L", "normalised enrichment score": 0.433}
{"Change": "D10A", "normalised enrichment score": 0.115}
{"Change": "R5A", "normalised enrichment score": 0.352}
{"Change": "L9A", "normalised enrichment score": 0.0454}
{"Change": "G11A", "normalised enrichment score": 0.429}
{"Change": "K6A", "normalised enrichment score": 0.287}
{"Change": "R5K L9F", "normalised enrichment score": 0.752}
{"data": "Block 3", "target": "RING finger protein unkempt homolog, zinc fingers 1-6, GST-SBP tag (UNK, Homo sapiens, UniProt Q9C0B0, residues 30-357)", "method": "RNA Bind-n-Seq", "molecule type": "RNA", "sample": "in vitro", "tested at": "not given", "notes": "RNA with constant flanks, human and mouse sites, ends assumed", "relative to": "input RNA pool", "reading": "higher = stronger binding", "constant ends, left off below": "GGGAGUUCUACAGUCCGACGAUC … CAACAGAGGAUUGAGCAUCA", "Residues (chain)": "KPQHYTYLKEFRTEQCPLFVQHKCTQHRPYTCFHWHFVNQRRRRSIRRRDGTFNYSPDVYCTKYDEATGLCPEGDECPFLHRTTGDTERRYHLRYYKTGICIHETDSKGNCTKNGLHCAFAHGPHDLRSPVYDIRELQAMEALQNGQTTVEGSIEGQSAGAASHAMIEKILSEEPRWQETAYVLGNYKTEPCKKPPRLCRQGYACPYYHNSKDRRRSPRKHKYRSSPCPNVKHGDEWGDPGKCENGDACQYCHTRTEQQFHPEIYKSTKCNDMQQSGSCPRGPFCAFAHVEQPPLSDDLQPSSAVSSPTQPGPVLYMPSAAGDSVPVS"}
{"Sequence": "AGUGGUGGUGCCUAUCCCAACAUCCCCCUCUCUUCUCCCUUACCUGGAGUACCCAAGCCUGUUUUUGCUACAGUUGAUGGACAGGAAAAGUUUGAAACCAAAGUAACCACAUUGGAUAAU", "bound/input enrichment [ratio]": 0.404}
{"Sequence": "GAGGAGUCUGGGUUCAGGGAGCCCGUGCUGGAUGCCAAGUCGGAGGUCACGGGCCAGCUUAUAGAUUUUCAGUGGAAACUGGGCAUGGCUGUGAGCUCUGACAGCUGCAGAUCUCUCAAG", "bound/input enrichment [ratio]": 0.0754}
{"Sequence": "AUCUGUGGCAUUGGCUGGCAUUUGGUUGGAAACUCAUGUUUGAAAAUUACUACUGCCAAGGAGAAUUAUGACAAUGCUAAAUUGUUCUGUAGGAACCACAAUGCCCUUUUGGCUUCUCUU", "bound/input enrichment [ratio]": 0.248}
{"Sequence": "UGGCCACAGGCAGGGCGGGUCUGUGUCCCAUGUGUCCUGUCAGUCCCCUGAGUAUGUGUGUGGGUGUGGCGCAUGUGCAGGUCUGUGCCUCCUGUCGGGAUUUGGGUUUUAACGUCUUCU", "bound/input enrichment [ratio]": 0.23}
{"Sequence": "AUCUAUGAACCAAAGACGUUUAAAUCUUUGGCUGCAUUGGCUAAGCGGAGGCAGCAGGAGGGAUUUGCUGCAGCUUUGGGGGAUGGAAAGGAGCCUGAAGGUAUCUUUUCCAGAGUGGUG", "bound/input enrichment [ratio]": 0.328}
{"Sequence": "GUCAUUUUUUUUCUUUGAAUAAAUGUCACUUUUUGAGGCAAAAGAAGGAACCGUGAACAUUUUAGACACCCUUUUCUUUGGGGUAGGCUCUUGCCCCAGGCGCCGGCUCUUCUCCCAAAA", "bound/input enrichment [ratio]": 0.605}
{"Sequence": "AAUAUAUAUCAAAUGGCGACAUUUGGAACAACAGCUGGUUUCUCUGGAAUAUUCUCAAACUUCCUGUUCAGACGCUGCUUCAAGGUUAAACAUGAUGCUUUGAAGACAUAUGCAUCAUUG", "bound/input enrichment [ratio]": 0.153}
{"Sequence": "CUUCCAUUUAUUGUUUCUCAUAGAUUGUCUAAUACCUUGAGCUUAGAUAUUCAUGAAAAUCAUAGUUUUGCACUUCUAGGGAAGAAGAAAUCAAGCAAUUUGACAUUACCACCCAAAUAU", "bound/input enrichment [ratio]": 0.698}
{"data": "Block 4", "target": "RNA binding protein fox-1 homolog 2, RRM domain, GST-SBP tag (RBFOX2, Homo sapiens, UniProt O43251-10, residues 100-194)", "method": "RNA Bind-n-Seq", "molecule type": "RNA", "sample": "in vitro", "tested at": "365 nM", "notes": "natural RNA segment, single round, ends assumed", "relative to": "no-protein control", "reading": "higher = stronger binding", "constant ends, left off below": "GGGAGUUCUACAGUCCGACGAUC … UGGAAUUCUCGGGUGCCAA", "Residues (chain)": "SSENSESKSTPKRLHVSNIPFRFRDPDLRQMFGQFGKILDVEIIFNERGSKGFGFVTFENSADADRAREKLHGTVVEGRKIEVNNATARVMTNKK"}
{"Sequence": "CGGCCACAGCCCCCUCCCUUUAGGCUAAAAUUCUCACCCAAGCUUUCCCACGGGAAGCUCUAGGACAGGAGGAAGGCGGGAAGCCCUGGGCAGGAACCACUCUGGCUGUC", "RBNS enrichment (R)": 0.419}
{"Sequence": "UCAAGAGUGAGGCUAAACUGCGACCCCAACAUCACUUCCUUCAUGGAAAGGUGUUGGCGCUGAUGUAGCUCAUGGAAGGAUCAGACUGGGAACCACAGAGGAAGGAUGAG", "RBNS enrichment (R)": 0.344}
{"Sequence": "AAGGCUUUUUCAGGGAAAACAAACAAACCGAUUUUAUAAGUCCAAUCAUCCCCGUGACCUCCUCAGCUGCUGACAAUCCUAUUUAGCAUAUGCAAAUCUUUUAUUGUAGA", "RBNS enrichment (R)": 0.451}
{"Sequence": "AGAGUGGAACCCGCUGCAAAAUCCCCAGCCUUAAUUCUUGCUUCAGGACCCAGACCGGUGUCUUGCUCUAGGGCAACCCAGGGCAGAGGGGCCAGGUCUGCCCAGCGUUU", "RBNS enrichment (R)": 0.199}
{"Sequence": "AUUAAGCAUGGCAUAAGAAGAUAUGAUUGUGUGUCAAGGUGACAAGGGGUGAACUUCAGAUGGCUCUUCUUGGUUGUCAGCCCGACUACAUUUGGAAUUAACUGAAGCCA", "RBNS enrichment (R)": 1.94}
{"Sequence": "CUCUCAUCACUGCCCUUGGACUUCCGCCUUGACUGUCCAUGAAAGACAGAAAUGGGUUGGGUAGUUGGGCUCCCAACCUCGGAUGGUGACCGCAACAUCCCGUGUGGGCG", "RBNS enrichment (R)": 0.8}
{"Sequence": "UAAAAUUAGAGCAAAUACAUUGGCAAUACAGCUGCUUUUGCUCUGAGCUACAAUCAUGGCUUUUCAUGUUACUUACCAAGUGGUGUUUCUGGUUAGGAAUCACAGCUGUA", "RBNS enrichment (R)": 0.285}
{"Sequence": "GGCUGGGUUUGAAAAGGCAAAAAGACAAGACAUCCAGGCAGGGCUUCUCUUUUCUUUCCACAAGGGACAAGAGCUUGGCUUAUUUAGGCUACAGCCCUGCUGCUGCUCCC", "RBNS enrichment (R)": 0.723}
{"note": "Some of these lines once more (block 3):"}
{"Sequence": "AUCUAUGAACCAAAGACGUUUAAAUCUUUGGCUGCAUUGGCUAAGCGGAGGCAGCAGGAGGGAUUUGCUGCAGCUUUGGGGGAUGGAAAGGAGCCUGAAGGUAUCUUUUCCAGAGUGGUG", "bound/input enrichment [ratio]": 0.328}
{"Sequence": "GUCAUUUUUUUUCUUUGAAUAAAUGUCACUUUUUGAGGCAAAAGAAGGAACCGUGAACAUUUUAGACACCCUUUUCUUUGGGGUAGGCUCUUGCCCCAGGCGCCGGCUCUUCUCCCAAAA", "bound/input enrichment [ratio]": 0.605}
{"Sequence": "AAUAUAUAUCAAAUGGCGACAUUUGGAACAACAGCUGGUUUCUCUGGAAUAUUCUCAAACUUCCUGUUCAGACGCUGCUUCAAGGUUAAACAUGAUGCUUUGAAGACAUAUGCAUCAUUG", "bound/input enrichment [ratio]": 0.153}
{"Sequence": "CUUCCAUUUAUUGUUUCUCAUAGAUUGUCUAAUACCUUGAGCUUAGAUAUUCAUGAAAAUCAUAGUUUUGCACUUCUAGGGAAGAAGAAAUCAAGCAAUUUGACAUUACCACCCAAAUAU", "bound/input enrichment [ratio]": 0.698}
